Measurements collected from several papers.
Each numbered part is a random draw from the data of one study; scales do not carry over between parts. Positions count from the first letter of the parent shown.

Set 1
Target: Centromere-binding protein 1, full length, His-tagged (CBF1, Saccharomyces cerevisiae, UniProt P17106, residues 1-351)
Sequence of UniProt P17106 (whole entry, looked up): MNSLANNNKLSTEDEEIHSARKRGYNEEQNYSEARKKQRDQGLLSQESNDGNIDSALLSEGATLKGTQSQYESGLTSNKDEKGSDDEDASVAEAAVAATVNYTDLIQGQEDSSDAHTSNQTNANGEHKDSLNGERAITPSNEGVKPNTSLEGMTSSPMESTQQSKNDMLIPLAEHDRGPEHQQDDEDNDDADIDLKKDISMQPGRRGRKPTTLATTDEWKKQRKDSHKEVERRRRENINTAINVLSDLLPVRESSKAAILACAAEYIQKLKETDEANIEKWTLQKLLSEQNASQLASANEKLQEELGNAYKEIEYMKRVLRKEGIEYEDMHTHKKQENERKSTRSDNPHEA
Method: competition protein-binding microarray
Form: double-stranded DNA, one strand shown
Sample: in vitro
Tested at: 2 µM
Setting: whole 60-bp probe, lowest competitor level
Added: Pho4 competitor, 0.05 µM
Reading: higher = stronger binding
Constant ends, left off below: … GTCTTGATTCGCTTGACGCTGCTG
| Strand | fluorescence intensity [a.u.] |
| --- | --- |
| ACATACAAATTTCCGCACGTTTTTAAACTTTTCCGG | 185 |
| CAGGTGTGGTTCAACCAAGATTAAGAGAGTATGATA | 71.9 |
| GAGCTTCTACTAAATAACGAGCAAGCAAGGGACGCT | 70.7 |
| CTTCTGTAAATTTGTTCGGTGGGTGGACGCGCCCCG | 81.2 |
| TGCGCAACAACTTTTCACGTGCTGTTATGTCTAGAA | 1170 |
| GTCTTGTCTCATTTTCACGTGGAGTTCCCCACTTCA | 445 |
| CTTCTGTAAATTTTTCACGTGATCTGACGCGCCCCG | 5020 |
| CTAACGAAGGTTTGTTGAGTGGGTGACAAGCCAAGT | 77.6 |
| AAAGCGGTAATTTGCTAGGTGGGTGCAGATATCTAT | 81.3 |
| AACGGAGACAGAAAGCACGTTGCCGCTTTGAGAACC | 114 |
| TGCGCAACAACTTGTTTCGTGGGTGTATGTCTAGAA | 75.9 |
| AAGTTCACTTGATGTGGCGTGATGGTCCTTTACCCG | 108 |
| AAACCTGGTTCTGCTACCGTGCCAGTCTTTGGTATT | 53.3 |
| TGCGCGCCCGCGACCCACGTGACGGTGATTCATTCG | 3980 |
| GTTTCTGTCGCAAAGCACGTTATGGCCACAATTTTG | 121 |
| CGGGGTTAAGTTTTTCACGTGGACTGCTTGCAGCAG | 589 |
| TCGAACAACCTTCCCAACGTGAAGAAGCTAAGAAAG | 77.2 |
| CACTACATAACCCGTCACGTTTCAAAAACGAGCCAA | 555 |
| AAAGCGGTAATTTGGGGGGTGGGTGCAGATATCTAT | 186 |
| CATACCCAACCTTGTCACAATACTTAAGATATTTGT | 97.6 |
| AAAGCGGTAATTTGTCACCCAACTTCACATATCTAT | 74.3 |
| GGCAAATACTGCCGACACGTTGCCAAATCGCTGACC | 112 |
| CGGGGTTAAGTTTGGCGTGTGGGTGGCTTGCAGCAG | 73.4 |
| CTAACGAAGGTTTGGAGGGTGGGTGACAAGCCAAGT | 57.2 |
| CATACCCAACCTTGTCACGAAACTTAAGATATTTGT | 95.4 |

Set 2
Target: RNA binding protein fox-1 homolog 2, RRM domain, GST-SBP tag (RBFOX2, Homo sapiens, UniProt O43251-10, residues 100-194)
Method: RNA Bind-n-Seq
Form: RNA
Sample: in vitro
Tested at: 365 nM
Setting: natural RNA segment, single round, ends assumed
Relative to: no-protein control
Reading: higher = stronger binding
Constant ends, left off below: GGGAGUUCUACAGUCCGACGAUC … UGGAAUUCUCGGGUGCCAA
Target sequence (chain): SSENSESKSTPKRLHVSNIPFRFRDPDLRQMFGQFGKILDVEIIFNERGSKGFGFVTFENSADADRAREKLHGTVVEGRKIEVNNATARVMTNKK
| Strand | RBNS enrichment (R) |
| --- | --- |
| GCUUUACUGAAGAUCUGUUUCUUUUGUACUCUGACUACACAUGACCCAAUUAUAUUCUAAUGUGAAAAUAUUAGCAUAAAUAGGUGAAAUUGCUCUUCUGAAAAUUGUGU | 0.319 |
| AAGCUAACUCUUAUUUUUCAGGGGGCACAUGUUUUGUUUUGUUAUGUUUUGUUGUACAAUGAAGGAUGAACCCAAUGCUAAAAAGUCAGUUAUUUUCUUGGUUUUCCAUU | 1.24 |
| UUUUUCUCUCUCCAAGGAUUCUUUCCAUAGCCCUGGCUGUCCUGAAACUCAUCCUGUAGAGCAGGCUGGCCUUGAACUCACAGAGCUCCACCUGCCCCUGCCUCUGAUCC | 0.243 |
| GAGAGGGCUUGUAUCCCUCUUGUGCUAAGCAGACUCUACUCCUAACUGACUUCAAUAUUUCAGCAGGGUACACAGGCGUUUCCAAGUUUCAGUGACACCGUCCUGCCUAA | 0.282 |
| CUUAGGGUUUGGGAGAAGUUGGAAUUAACCCAAGGUCAAGUCCUUUCUUUUGCCUCCGAGAUGACCAAAUGCACUUGUGUCUUCUGUUUGUUGCUUGUUGAGUAAGCAGC | 1.47 |
| ACAAACCCAAGAAACGCAUCCCCAUUGUGUGAUGUGUUCAGAUGCAUCUGGCACCAAUUAGGUAUUUCUUAAAACAGGACUCAUCUGUCAGAGUGCACAUGAAAAAUCAG | 0.44 |
| CUCUCCUCAUGUGCUUAUACCCUGUUCCAUGAAAAUAAAUGAGACCAUGAUUUUCCUUCAUGAUGUACCAUGUUUAACUUUCAUGUAUUAUUCUGCAAACUUGGUAGGCU | 0.57 |
| GCGCUUGGUGGUUUUAAAGUGCAUGCUAUUUUAUUAUCUUCUUCUGAAUAAAAUGUAUUUACUCAAAGUCUCUGCUGACAAACUCUCUUCCUUCUGGACUUCUAGCAGAA | 1.83 |
| ACCAAGAAGCAAAGUUCAACUUAUUUCAUAAUUGCCUACAUUUAUCAUGGUCCUGAAUGUAGCGUGUAAGCUUGUGUUUCUUGGGCAGUCUUUCUUGAAAUUGAAGAGGU | 0.594 |
| ACAGCCCCCUACCCGUCCCCCUCGCCUCACACGGUCCCUCUCCGAGGCCGAGAAGACCUUCUGUUCCUGUAAAUACAGCCAGCAAGUGCAAACUGUGAUUUUAUUUUCCA | 0.387 |
| CCAUGAGCAAUUGUUUGCUCUUGAAAACCUCACUGCAAGGCUGAGGCUGAGCUUCUGAUUCACCACCCCAGGGCCUCCUUAUAGUUCUCUGCACACAAUAGGUGCUUCUU | 0.311 |
| GGAGGCUGGCAGAAGCUGAGACGUGACUGUCUAGGAGUAACACUCAUUAAAGCUUUCAUUUUGGCACAGGUCAUCUUCUGUGUUCUGGUUGGGAGUGAAUGGGUGGGAGU | 0.32 |

Set 3
Target: Fragile X messenger ribonucleoprotein 1, C-terminal low-complexity region (Fmr1, Mus musculus, UniProt P35922)
Method: RNA Bind-n-Seq
Form: RNA
Sample: in vitro
Tested at: 200 nM
Setting: whole 134-nt RNA, ends assumed
Added: 150 mM LiCl
Relative to: input library
Reading: higher = stronger binding
All molecules: 7-deaza-guanosine replaces G
Constant ends, left off below: GGGAGUUCUACAGUCCGACGAUC … UGGAAUUCUCGGGUGUCAAGG
| Strand | log2 enrichment |
| --- | --- |
| CAAGUCCUGUGCUACACAUCGUAUGUACCGAAUCGGUUUGGAAAAAGGUUUUUGGAAAGUAUUAUGUUACGCCGUUCGGAUCUGCACUUC | -2.1 |
| UCAACAAGAGAUGUUCAAGAACUUUUGACACAAUAUACCAAGUUUGCACAGAUGGUAAAAAAGAUGGGAGGUAUCAAAGGACUUUUCAAA | -1.13 |
| CUCAAGUCCUGUGCUACACAUCGUAUGUACCGAAUCGGGAAGGAAGGGGAAGGGAAAGUAUUAUGUUACGCCGUUCGGAUCUGCACUUCC | -0.636 |
| CCUGUGCUACACAUCGUAUGUACCGAAUCGGGGUUUUUUUGGGGAAAAAAAGGGGUGGGGAAAGUAUUAUGUUACGCCGUUCGGAUCUGC | -1.35 |
| UGGCCCUGGUGGCAUGCGGGGUGGAAGAGGUGGCCUCAUGGAUCGUGGUGGUCCCGGUGGAAUGUUCAGAGGUGGCCGUGGUGGAGACAG | 0.486 |
| CUGUGCUACACAUCGUAUGUACCGAAUCGGGGUUUUUGGGGUUUUUGGGGUUUUUUUGGGGAAAGUAUUAUGUUACGCCGUUCGGAUCUG | 1.69 |
| UGGCCCUGGUGGCAUGCGGGGAGGAAGAGGUGGCCUCAUGGAUCGUGGUGGUCCCGGUCGAAUGUUCAGAGGUGGCCGUGGUGGAGACAG | -0.699 |
| AGUCCUGUGCUACACAUCGUAUGUACCGAAUCGGGAAAGGGUUUUUUUGGGAAAGGGAAAGUAUUAUGUUACGCCGUUCGGAUCUGCACU | -1.87 |
| UGGCCCUGGUGGCAUGCGCGGAGGAAGAGGUGGCCUCAUGGAUCGUGGUGGUCCCGGUGGAAUGUUCAGAGGUGGCCGUGGUGGAGACAG | -0.262 |
| CAAGUCCUGUGCUACACAUCGUAUGUACCGAAUCGGGAAAGGAAAGGGGAAAGGGAAAGUAUUAUGUUACGCCGUUCGGAUCUGCACUUC | -0.245 |
| CCUCAAGUCCUGUGCUACACAUCGUAUGUACCGAAUCGGGCGGCGGGGCGGGAAAGUAUUAUGUUACGCCGUUCGGAUCUGCACUUCCAG | -0.0988 |

Set 4
Target: TAR DNA-binding protein 43, full length, His tag (TARDBP, Homo sapiens, UniProt Q13148, residues 1-414)
Method: RNA Bind-n-Seq
Form: RNA
Sample: in vitro
Tested at: 20 nM
Setting: 6-mer, flanks averaged, single round
Added: 150 mM KCl
Relative to: input library
Reading: higher = stronger binding
| Strand | 6-mer enrichment (R) |
| --- | --- |
| GCUACU | 0.642 |
| UCUUAU | 0.574 |
| AUAAUA | 1.26 |
| UAGGUA | 0.78 |
| UGUAUG | 1.38 |
| CGCGCA | 0.896 |
| CUUCUC | 0.543 |
| UAUCUC | 0.535 |
| UAUGAC | 0.659 |
| GUACGC | 0.917 |
| AAAGUG | 0.881 |
| CUACCU | 0.568 |
| AAUGAU | 0.69 |
| AACCAC | 0.615 |
| GUUGGU | 1.16 |
| UCUAAG | 0.644 |
| AGCAGG | 1.7 |

Set 5
Target: Histone acetyltransferase KAT6A, both winged helices, GST fusion (KAT6A, Homo sapiens, UniProt Q92794, residues 1-181)
Method: protein binding microarray
Form: double-stranded DNA, one strand shown
Sample: in vitro
Tested at: not given
Setting: 8-mer, flanks averaged, mean of 2 arrays, mostly near background
Relative to: not given
Reading: higher = stronger binding
Target sequence (chain): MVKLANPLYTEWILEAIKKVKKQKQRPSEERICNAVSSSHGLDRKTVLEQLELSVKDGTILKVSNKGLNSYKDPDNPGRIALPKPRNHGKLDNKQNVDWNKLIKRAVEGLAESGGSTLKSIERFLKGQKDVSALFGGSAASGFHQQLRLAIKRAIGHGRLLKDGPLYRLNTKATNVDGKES
| Strand | E-score |
| --- | --- |
| ACGCACGC | 0.301 |
| ATTAATTC | -0.00197 |
| CTGATTGA | -0.0495 |
| ATGCACAC | -0.0156 |
| TCCCCCCA | -0.342 |
| CTACTCAC | -0.134 |
| GAACACTA | -0.0553 |
| ACGCGACC | 0.217 |
| CTACCACC | -0.0999 |
| AGGCCGTC | 0.198 |
| ACGCGTTC | 0.346 |
| CTGATGTC | -0.0532 |
| ACGCCCCC | 0.12 |
| GGGTGGAC | -0.0506 |
| AGTCCGCG | 0.318 |
| CCCGGAAC | 0.0814 |
| AGAGGGTA | -0.337 |
| TGAATAAA | 0.0246 |

Set 6
Target: CCNA2, cyclin fold, Cln2 fusion (human)
Method: yeast growth competition, sequencing
Sample: yeast
Setting: strong parent motif
Relative to: not given
Reading: higher = stronger binding
Parent: ITGB3BP docking peptide (human); MPVKRSLKLDGLL
| Variant | normalised enrichment score |
| --- | --- |
| P2A | 1.84 |
| K4A | 1.81 |
| D10A | 1.55 |
| M1A | 0.879 |
| V3A | 2.61 |
| K8A | 1.78 |
| L9F | 5.52 |

A few entries again (set 4):
| Strand | 6-mer enrichment (R) |
| --- | --- |
| AUAAUA | 1.26 |
| UAGGUA | 0.78 |
| UGUAUG | 1.38 |
| CGCGCA | 0.896 |
| CUUCUC | 0.543 |
| UAUCUC | 0.535 |
| UAUGAC | 0.659 |
| GUACGC | 0.917 |
| AAAGUG | 0.881 |
| CUACCU | 0.568 |
| AAUGAU | 0.69 |
| AACCAC | 0.615 |
| GUUGGU | 1.16 |
